Measurements pooled from the literature.
Every numbered part comes from another study and shows a few of its results, in no order. Substitutions count along the parent as printed.

Series 1
Target: CCND2, cyclin fold, Cln2 fusion (human)
Technique: yeast growth competition, sequencing
Medium: yeast
Notes: weak parent motif
Baseline: not given
Direction: higher = stronger binding
Starting sequence: BRCA2 docking peptide (human); PSIKRNLLNEFDR; partner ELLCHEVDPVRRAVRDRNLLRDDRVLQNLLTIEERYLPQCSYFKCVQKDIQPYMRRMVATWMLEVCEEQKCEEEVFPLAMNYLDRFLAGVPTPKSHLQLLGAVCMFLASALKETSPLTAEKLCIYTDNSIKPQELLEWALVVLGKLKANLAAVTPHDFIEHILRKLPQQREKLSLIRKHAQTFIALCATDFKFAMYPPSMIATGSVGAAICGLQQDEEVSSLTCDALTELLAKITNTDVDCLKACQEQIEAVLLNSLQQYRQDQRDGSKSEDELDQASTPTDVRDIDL
Under “normalised enrichment score”, `L8I` is recorded as 0.417.
`E10Y` — result for “normalised enrichment score”: -0.322.
For `L7F`, “normalised enrichment score” read -0.317.
Under “normalised enrichment score”, `N9L` is recorded as 0.0441.
`L7V`: “normalised enrichment score” -0.592.
Under “normalised enrichment score”, `S2T` is recorded as 0.255.
`L7E` — result for “normalised enrichment score”: 0.0419.
`N6C`: “normalised enrichment score” -0.547.
`D12M`: “normalised enrichment score” 0.444.
`K4G` — result for “normalised enrichment score”: -0.333.
`K4S` — result for “normalised enrichment score”: 0.163.
`I3M` — result for “normalised enrichment score”: -0.0413.
Under “normalised enrichment score”, `R13V` is recorded as 0.237.
`I3Q`: “normalised enrichment score” 0.185.
For `R5S`, “normalised enrichment score” read 0.55.
`N9I`: “normalised enrichment score” 0.516.
`E10H`: “normalised enrichment score” 0.0491.
For `E10N`, “normalised enrichment score” read 0.272.

Series 2
Target: Fragile X messenger ribonucleoprotein 1, C-terminal low-complexity region (Fmr1, Mus musculus, UniProt P35922)
Technique: RNA Bind-n-Seq
Form: RNA
Medium: in vitro
Concentration: 200 nM
Notes: whole 134-nt RNA, ends assumed
With: 150 mM LiCl
Baseline: input library
Direction: higher = stronger binding
Library: 7-deaza-guanosine replaces G
For `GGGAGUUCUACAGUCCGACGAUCUCCUGUGCUACACAUCGUAUGUACCGAAUCGGGGCCCCCGGGCCCCCGGGGCCCCCGGGGAAAGUAUUAUGUUACGCCGUUCGGAUCUGCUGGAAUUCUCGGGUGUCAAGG`, the log2 enrichment was -3.05.
For `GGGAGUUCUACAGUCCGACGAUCCCUGUGCUACACAUCGUAUGUACCGAAUCGGGGUUUUUUUGGGGUUUGGGGUUUUUGGGGAAAGUAUUAUGUUACGCCGUUCGGAUCUGCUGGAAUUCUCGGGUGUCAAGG`, the log2 enrichment was -0.995.
For `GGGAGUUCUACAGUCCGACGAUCUGGGGACAAGCUGACAGCAGCCAUGGCGAGCGGCAGUGGAGACAGCGUCACCCGUCGGAGCGUGGCAUCACAGUUUUUCACUCAAGAGGAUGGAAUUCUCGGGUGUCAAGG`, the log2 enrichment was -1.76.
With `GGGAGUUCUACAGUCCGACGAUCGUCCUGUGCUACACAUCGUAUGUACCGAAUCGGGUUUUUUUGGGUGGGUUUUUUUGGGAAAGUAUUAUGUUACGCCGUUCGGAUCUGCACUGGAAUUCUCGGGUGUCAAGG` the log2 enrichment was -0.472.
`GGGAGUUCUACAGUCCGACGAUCACCAUGCAGGUGGGCAUCUUUGGGAAGUGGGGCAAGGGGGGGAUAGGGAGGGGAGUAACACUUUGGGAACAGGUGGUCCCAGGUCGUUUCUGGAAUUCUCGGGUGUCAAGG` has a log2 enrichment of 0.822.
The log2 enrichment of `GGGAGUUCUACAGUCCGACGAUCCCUGUGCUACACAUCGUAUGUACCGAAUCGGGAAAAAGGGUUUUUUUGGGUUUUUUUGGGAAAGUAUUAUGUUACGCCGUUCGGAUCUGCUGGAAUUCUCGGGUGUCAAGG` is reported as -2.56.
`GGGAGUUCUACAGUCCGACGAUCGUCCUGUGCUACACAUCGUAUGUACCGAAUCGGAAAAAAGGAAAAAAGGGAAAAAAGGGAAAGUAUUAUGUUACGCCGUUCGGAUCUGCAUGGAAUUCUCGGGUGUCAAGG` has a log2 enrichment of -0.282.
`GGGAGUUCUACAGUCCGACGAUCACCAUGCAGGUGGGCAUCUUUGGGAAGUGGGGCAAGGGAAAGAUAGGGAGGGGGGUAACACUUUGGGAACAGGUGGUCCCAGGUCGUUUCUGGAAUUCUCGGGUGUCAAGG` has a log2 enrichment of 0.638.
With `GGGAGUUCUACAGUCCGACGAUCUGGCCCUGGUGGCAUGCGGGGAGGAAGAGGUGGCCUCAUGGAUCGUGGUGGUCCCGGUGGUAUGUUCAGAGGUGGCCGUGGUGGAGACAGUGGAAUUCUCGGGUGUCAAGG` the log2 enrichment was -0.765.
With `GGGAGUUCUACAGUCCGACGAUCCAAGUCCUGUGCUACACAUCGUAUGUACCGAAUCGGGUUUGGGAAAAAGGGUGGGAAAGUAUUAUGUUACGCCGUUCGGAUCUGCACUUCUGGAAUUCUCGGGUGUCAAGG` the log2 enrichment was -1.37.
For `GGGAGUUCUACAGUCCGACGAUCUAACUUUAGAGGAGGAUCUGAUGGAUAUUGCAGUGGACGUGGAUUUGGGGAUGGCUAUAAUGGGUAUGGAGGAGGACCUGGAGGUGGCAAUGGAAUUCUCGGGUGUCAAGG`, the log2 enrichment was 0.432.

Series 3
Target: Histone acetyltransferase KAT6A, winged helix 1, GST fusion (KAT6A, Homo sapiens, UniProt Q92794, residues 1-85)
Technique: protein binding microarray
Form: double-stranded DNA, one strand shown
Medium: in vitro
Concentration: not given
Notes: 8-mer, flanks averaged, mean of 2 arrays, mostly near background
Baseline: not given
Direction: higher = stronger binding
Residues (chain): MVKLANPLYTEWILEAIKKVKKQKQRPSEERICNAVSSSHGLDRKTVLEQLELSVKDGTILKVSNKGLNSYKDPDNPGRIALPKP
`AACGTTCA` gave an E-score of -0.074.
With `AGTTCCGC` the E-score was 0.233.
`AATTCGGC` gave an E-score of -0.00104.
For `GAATCTAC`, the E-score was -0.0464.
For `ACAACAAC`, the E-score was -0.171.
`TCCCTAGA` has an E-score of -0.15.
With `CTTATAGA` the E-score was -0.105.
`CCGTGTAC` gave an E-score of 0.263.
`GTGCCAAC` has an E-score of -0.17.
For `ACGCTGTC`, the E-score was 0.0718.
For `GGGCGTCA`, the E-score was 0.157.
`CAAAAGCG` gave an E-score of 0.163.
`AATCCAGG` gave an E-score of -0.211.
For `CATAGGCA`, the E-score was -0.0548.
With `AGAGGCTG` the E-score was -0.313.
`ATCGGCCA` gave an E-score of 0.193.
For `GGGCTGAA`, the E-score was 0.08.
`ATGGTCCA` has an E-score of -0.169.
For `ACCCCCTA`, the E-score was -0.248.
`GTTAGGTA` gave an E-score of -0.0341.
For `CGAGTCGA`, the E-score was -0.109.
`ACCTGATA` has an E-score of -0.0923.
`CTGGCTAC` has an E-score of -0.11.
With `GCGATGCA` the E-score was 0.093.

Series 4
Target: ABI1, truncated, D143A, DHFR fusion (Arabidopsis thaliana)
Technique: DHFR PCA, deep sequencing
Medium: yeast
Notes: methotrexate growth selection, single substitutions
With: (+)-ABA 1.4 µM
Baseline: wild-type fitted maximum
Direction: higher = stronger binding
Starting sequence: PYL1, truncated, DHFR fusion (Arabidopsis thaliana); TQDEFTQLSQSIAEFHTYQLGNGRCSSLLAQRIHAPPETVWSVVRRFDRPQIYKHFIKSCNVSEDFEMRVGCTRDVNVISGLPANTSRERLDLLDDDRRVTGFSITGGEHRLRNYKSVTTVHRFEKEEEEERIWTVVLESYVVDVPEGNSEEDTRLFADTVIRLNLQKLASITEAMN
`Y141M`: “relative binding score” 1.83%.
`T86C`: “relative binding score” 59.1%.
`V76A`: “relative binding score” 1.33%.
`D95A` — result for “relative binding score”: 0.719%.
`W134F` — result for “relative binding score”: 59%.
Under “relative binding score”, `T106A` is recorded as 2.86%.
For `Y115C`, “relative binding score” read 3.55%.
`R155K` — result for “relative binding score”: 54.7%.
`T173Q` — result for “relative binding score”: -3.6%.
For `T119M`, “relative binding score” read 27.9%.
`I12A`: “relative binding score” -4.41%.
`R111H` — result for “relative binding score”: -1.12%.
`T160S` — result for “relative binding score”: 10.2%.
For `V43A`, “relative binding score” read 7.27%.
`T17Y` — result for “relative binding score”: -15.3%.
`M68S` — result for “relative binding score”: 1.85%.

Series 5
Target: Interferon regulatory factor 3, full length, phosphomimetic (IRF3, Homo sapiens, UniProt Q14653, residues 1-427, S386D/S396D/S398D/S402D/T404D/S405D)
Technique: protein-binding microarray
Form: double-stranded DNA, one strand shown
Medium: in vitro
Concentration: 2540 nM top
Notes: 60-bp whole probe
With: salmon DNA 0.4 mg/ml
Baseline: random background probes
Direction: higher = stronger binding
Shared flanks, not repeated: GCCTAGCAC … GTCTTGATTCGCTTGACGCTGCTG
Target sequence (chain): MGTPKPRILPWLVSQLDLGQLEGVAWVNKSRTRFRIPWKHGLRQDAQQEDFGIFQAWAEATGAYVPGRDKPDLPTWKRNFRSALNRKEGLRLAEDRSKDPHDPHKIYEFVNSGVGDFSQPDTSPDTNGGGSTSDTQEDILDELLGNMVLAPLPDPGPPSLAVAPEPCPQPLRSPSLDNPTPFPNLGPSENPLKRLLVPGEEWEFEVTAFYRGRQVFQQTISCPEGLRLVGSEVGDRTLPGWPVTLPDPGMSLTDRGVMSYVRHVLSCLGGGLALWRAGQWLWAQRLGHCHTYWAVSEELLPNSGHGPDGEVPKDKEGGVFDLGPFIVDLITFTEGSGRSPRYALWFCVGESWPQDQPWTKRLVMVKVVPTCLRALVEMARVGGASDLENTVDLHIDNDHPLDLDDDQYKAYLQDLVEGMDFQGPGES
For `TTAGGACTGGGTTTTGGTTAGTGCTAG`, “fitted relative affinity” read -0.265 z-score.
`TCAAACTTTTTTCTGATACTGTGCTAG`: “fitted relative affinity” 0.466 z-score.
Under “fitted relative affinity”, `TTGGGTCTGGGTATTTTTCTGTGCTAG` is recorded as -0.948 z-score.
For `TTAGGACTGGGTCTCAGTTAGTGCTAG`, “fitted relative affinity” read -0.517 z-score.
Under “fitted relative affinity”, `TAAGATATCAGTTTCGATTAGTGCTAG` is recorded as 4.98 z-score.
For `GACGGTTTCCTTTTCTTGACGTGCTAG`, “fitted relative affinity” read 10.5 z-score.
Under “fitted relative affinity”, `AGTGATAACTTTTTTTTTTCGTGCTAG` is recorded as 0.192 z-score.
For `TCATTTCTGTTTTTGCTACTGTGCTAG`, “fitted relative affinity” read 3.67 z-score.
`CATGAATCAGGCATAGCATGGTGCTAG`: “fitted relative affinity” -0.27 z-score.
Under “fitted relative affinity”, `GACGAACTGAGTCTCGAGACGTGCTAG` is recorded as -0.311 z-score.
`TCATGTTTCTACTGTCTGACTGTGCTA`: “fitted relative affinity” 0.492 z-score.
For `TTATTTAGGATAGAACTATAGTGCTAG`, “fitted relative affinity” read 0.371 z-score.
For `GACGGTCTCGGTTTTGGGACGTGCTAG`, “fitted relative affinity” read 2.13 z-score.
For `GACGAACTGAGTATGGAGACGTGCTAG`, “fitted relative affinity” read -0.0975 z-score.
Under “fitted relative affinity”, `TTAGGTATCGACTATCGGTCAGTGCTA` is recorded as 0.334 z-score.
Under “fitted relative affinity”, `GACGGTCCCGGTTTCGGGACGTGCTAG` is recorded as 2.71 z-score.

For quick reference, copied from above (series 1):
`N6C`: “normalised enrichment score” -0.547.
Under “normalised enrichment score”, `R13V` is recorded as 0.237.
For `L7F`, “normalised enrichment score” read -0.317.
`I3M` — result for “normalised enrichment score”: -0.0413.
`E10H`: “normalised enrichment score” 0.0491.
Under “normalised enrichment score”, `N9L` is recorded as 0.0441.
`E10Y` — result for “normalised enrichment score”: -0.322.
`N9I`: “normalised enrichment score” 0.516.
`D12M`: “normalised enrichment score” 0.444.
`K4S` — result for “normalised enrichment score”: 0.163.
For `E10N`, “normalised enrichment score” read 0.272.
